Experimental data pooled from the literature.
Protocols differ between the studies behind these lines.
Target: Carbonic anhydrase 9 (CA9, Homo sapiens, UniProt Q16790)

With `CC[C@H](C)[C@H](N)C(=O)NS(=O)(=O)CC(=O)N[C@]1(C(=O)O)[C@@H]2CN(C)C=C(C(N)=O)[C@@H]2C[C@@H]1O` the Ki was 63 nM (pH 7.5).
With `NS(=O)(=O)c1ccc(C(=O)N2CCN(c3cccc4[nH]ccc34)CC2)cc1Br` the IC50 was 28.2 nM (enzyme activity, inhibitor).
The Ki of `O=C1CCc2c(ccc3ccccc23)O1` is reported as 3000 nM (enzyme activity, inhibitor, stopped-flow).
For `NS(=O)(=O)c1cc(C(=O)NCCCC(=O)O)c(NC2CCCCC2)cc1Cl`, the Kd was 65 nM (pH 7).
The IC50 of `NS(=O)(=O)c1ccc(NC(=O)CN2CCCC(NC(=O)c3cc4ccccc4o3)C2)cc1` (stereo not shown) is reported as 25.7 nM (enzyme activity, inhibitor).
`CN1C=C(C(N)=O)[C@@H]2C[C@H](O)[C@@](NC(=O)CS(N)(=O)=O)(C(=O)O)[C@@H]2C1` gave an IC50 of > 1000 nM (enzyme activity, inhibitor, absorbance; pH 7.5).
With `N#CSCCCCCCOc1ccc2c(-c3ccccc3)cc(=O)oc2c1` the Ki was 157 nM (enzyme activity, inhibitor, stopped-flow).
For `Cc1cc(C(=O)N(CC(=O)Nc2ccc(-c3cn(C)nn3)cc2F)Cc2ccc(Cl)cc2)ccc1S(N)(=O)=O`, the IC50 was 12 nM (enzyme activity, inhibitor).
For `CCCCC1CCC(=O)O1` (stereo not shown), the Ki was 6700 nM (enzyme activity, inhibitor, stopped-flow).
The Ki of `Cc1c(Cl)c(=O)oc2cc(OCCCCCCSC#N)ccc12` is reported as 65.4 nM (enzyme activity, inhibitor, stopped-flow).
`CC[C@H](C)[C@H](N)C(=O)NS(=O)(=O)CC(=O)N[C@@]1(C(=O)O)[C@@H](OC(=O)[C@@H](N)[C@@H](C)c2ccccc2)C[C@H]2C(C(N)=O)=CN(C)C[C@H]21` has a Ki of 99 nM (pH 7.5).
`CCCCCCC1CCCC(=O)O1` (stereo not shown) has a Ki of 7600 nM (enzyme activity, inhibitor, stopped-flow).
`NS(=O)(=O)c1ccc(NC(=O)c2cc3sccc3n2Cc2ccc(Cl)cc2)cc1` gave an IC50 of 18.2 nM (enzyme activity, inhibitor).

Repeated from above:
`CC[C@H](C)[C@H](N)C(=O)NS(=O)(=O)CC(=O)N[C@@]1(C(=O)O)[C@@H](OC(=O)[C@@H](N)[C@@H](C)c2ccccc2)C[C@H]2C(C(N)=O)=CN(C)C[C@H]21` has a Ki of 99 nM (pH 7.5).
